Measured values pooled from the literature.
Each line is one published result; not all experiments were run side by side. “And” joins repeats or separate records; there may be more than shown. Numbers after ± are the reported error.

SMILES | test | system | conditions | how to read | measurement | value
O=C(O)C1=CO[C@@H](O[C@@H]2O[C@H](CO)[C@@H](O)[C@H](O)[C@H]2O)[C@@H]2C(CO)=CC[C@H]12 |  | Sprague-Dawley rat, internal jugular vein plasma | oral, dose not given, dosed as combined Eu and Pc extracts | reference: Eu extract alone | AUC(0-inf) increase | 401000 ± 312000 ng·h/mL
CCc1cc(C(=O)NC)c2nccc(N3CCc4c(cc(Cn5ccnc5)cc4-c4cn(C)nc4C(F)(F)F)C3=O)c2c1 |  | Sprague Dawley rat, male, plasma | oral, 100 mg/kg twice daily, 7 days |  | AUC(0-inf) | 126000 ng·h/mL
CSc1ccccc1C(=O)NCCn1cc(C(=O)NCc2cccc(C)n2)c(=O)c2cc3c(cc21)OC(F)(F)O3 |  | Sprague-Dawley rat, male, plasma | intravenous, 5 mg/kg of parent drug |  | AUC(0-inf) | 108 ± 7.3 ng·h/mL
COc1cc2nccc(Oc3ccc(NC(=O)NC4CC4)c(Cl)c3)c2cc1C(N)=O |  | Sprague-Dawley rats male, plasma | oral, dose not given, with: posaconazole | reference: without posaconazole | AUC(0-inf) increase | 94.3%
O=C1CC[C@H](N2Cc3cc(N4CCN(CC5CCN(c6ccc([C@@H]7c8ccc(O)cc8CC[C@@H]7c7ccccc7)cc6)CC5)CC4)ccc3C2=O)C(=O)N1 |  | fasted Sprague-Dawley rat, plasma | oral, 20 mg/kg | reference: male rats | AUC(0-inf) excess female over male | 84.3%
C=CC(=O)N1CCC(Oc2cc3c(Nc4ccc(Cl)c(Cl)c4F)ncnc3cc2OC)CC1 |  | Sprague-Dawley rat male, plasma | oral, 2 mg/kg, with: schisandrin B 20 mg/kg daily 1 weeks pretreatment | reference: no pretreatment | AUC(0-inf) ratio | 0.58 fold
COc1cc([C@H]2OC[C@H]3[C@@H]2CO[C@@H]3c2ccc(O[C@@H]3O[C@H](CO)[C@@H](O)[C@H](O)[C@H]3O)c(OC)c2)ccc1O[C@@H]1O[C@H](CO)[C@@H](O)[C@H](O)[C@H]1O |  | rat, plasma | oral, dose not given, dosed as combined Eu and Pc extracts | reference: single extracts | AUC(0-inf) decrease | 156000 ± 152000 ng·h/mL
CNC(=O)c1cccc(-c2ccc(O[C@H]3O[C@H](CO)[C@@H](O)[C@H](O)[C@@H]3O)c(C)c2)c1 |  | Sprague-Dawley rat, male, plasma | oral, 10 mg/kg |  | AUC(0-inf) | 16 ng·h/mL
CCc1c(-c2ccccc2)c(-c2ccccc2)nn1-c1ccccc1-c1cccc(OCC(=O)O)c1 |  | Sprague-Dawley rat | intravenous, dose not given |  | AUC(0-inf) observed | 3310 ng·h/mL and 2410 ng·h/mL and 3120 ng·h/mL
Cc1cccc(CNC(=O)c2cn(CCNC(=O)c3ccccc3Sc3c([N+](=O)[O-])ncn3C)c3cc4c(cc3c2=O)OC(F)(F)O4)n1 |  | Sprague-Dawley rat, male, whole blood | intramuscular, 3 mg/kg of parent compound |  | AUC(0-inf) | 36.5 ng·h/mL
COC(=O)C1=CO[C@@H](O[C@@H]2O[C@H](CO)[C@@H](O)[C@H](O)[C@H]2O)[C@@H]2C(CO)=CC[C@H]12 |  | Sprague-Dawley rat, internal jugular vein plasma | oral, dose not given, dosed as combined Eu and Pc extracts | reference: Eu extract alone | AUC(0-inf) increase | 42200 ± 18600 ng·h/mL
Cc1cccc(CNC(=O)c2cn(CCNC(=O)c3ccccc3S)c3cc4c(cc3c2=O)OC(F)(F)O4)n1 |  | Sprague-Dawley rat, male, plasma | intravenous, 20 mg/kg of parent drug |  | AUC(0-inf) | 1510 ± 126 ng·h/mL
C1=C/COCc2cc(ccc2OCCN2CCCC2)Nc2nccc(n2)-c2cccc(c2)COC/1 | LC-MS/MS | Sprague-Dawley rat, male, plasma | oral, 36 mg/kg, with: isavuconazole 20 mg/kg oral |  | AUC(0-inf) | 11800 ± 7580 ng·h/mL

Some of these lines once more:
SMILES | test | system | conditions | how to read | measurement | value
C=CC(=O)N1CCC(Oc2cc3c(Nc4ccc(Cl)c(Cl)c4F)ncnc3cc2OC)CC1 |  | Sprague-Dawley rat male, plasma | oral, 2 mg/kg, with: schisandrin B 20 mg/kg daily 1 weeks pretreatment | reference: no pretreatment | AUC(0-inf) ratio | 0.58 fold
